Assay results pooled from the literature.
Each line is one published result; not all experiments were run side by side. Several values in a cell are separate wells, animals, samples, runs or records. ± marks the error that the study gave.
TOP2A: DNA topoisomerase 2-alpha (TOP2A, Homo sapiens, UniProt P11388)
UniProt P11388, sequence (whole entry, looked up): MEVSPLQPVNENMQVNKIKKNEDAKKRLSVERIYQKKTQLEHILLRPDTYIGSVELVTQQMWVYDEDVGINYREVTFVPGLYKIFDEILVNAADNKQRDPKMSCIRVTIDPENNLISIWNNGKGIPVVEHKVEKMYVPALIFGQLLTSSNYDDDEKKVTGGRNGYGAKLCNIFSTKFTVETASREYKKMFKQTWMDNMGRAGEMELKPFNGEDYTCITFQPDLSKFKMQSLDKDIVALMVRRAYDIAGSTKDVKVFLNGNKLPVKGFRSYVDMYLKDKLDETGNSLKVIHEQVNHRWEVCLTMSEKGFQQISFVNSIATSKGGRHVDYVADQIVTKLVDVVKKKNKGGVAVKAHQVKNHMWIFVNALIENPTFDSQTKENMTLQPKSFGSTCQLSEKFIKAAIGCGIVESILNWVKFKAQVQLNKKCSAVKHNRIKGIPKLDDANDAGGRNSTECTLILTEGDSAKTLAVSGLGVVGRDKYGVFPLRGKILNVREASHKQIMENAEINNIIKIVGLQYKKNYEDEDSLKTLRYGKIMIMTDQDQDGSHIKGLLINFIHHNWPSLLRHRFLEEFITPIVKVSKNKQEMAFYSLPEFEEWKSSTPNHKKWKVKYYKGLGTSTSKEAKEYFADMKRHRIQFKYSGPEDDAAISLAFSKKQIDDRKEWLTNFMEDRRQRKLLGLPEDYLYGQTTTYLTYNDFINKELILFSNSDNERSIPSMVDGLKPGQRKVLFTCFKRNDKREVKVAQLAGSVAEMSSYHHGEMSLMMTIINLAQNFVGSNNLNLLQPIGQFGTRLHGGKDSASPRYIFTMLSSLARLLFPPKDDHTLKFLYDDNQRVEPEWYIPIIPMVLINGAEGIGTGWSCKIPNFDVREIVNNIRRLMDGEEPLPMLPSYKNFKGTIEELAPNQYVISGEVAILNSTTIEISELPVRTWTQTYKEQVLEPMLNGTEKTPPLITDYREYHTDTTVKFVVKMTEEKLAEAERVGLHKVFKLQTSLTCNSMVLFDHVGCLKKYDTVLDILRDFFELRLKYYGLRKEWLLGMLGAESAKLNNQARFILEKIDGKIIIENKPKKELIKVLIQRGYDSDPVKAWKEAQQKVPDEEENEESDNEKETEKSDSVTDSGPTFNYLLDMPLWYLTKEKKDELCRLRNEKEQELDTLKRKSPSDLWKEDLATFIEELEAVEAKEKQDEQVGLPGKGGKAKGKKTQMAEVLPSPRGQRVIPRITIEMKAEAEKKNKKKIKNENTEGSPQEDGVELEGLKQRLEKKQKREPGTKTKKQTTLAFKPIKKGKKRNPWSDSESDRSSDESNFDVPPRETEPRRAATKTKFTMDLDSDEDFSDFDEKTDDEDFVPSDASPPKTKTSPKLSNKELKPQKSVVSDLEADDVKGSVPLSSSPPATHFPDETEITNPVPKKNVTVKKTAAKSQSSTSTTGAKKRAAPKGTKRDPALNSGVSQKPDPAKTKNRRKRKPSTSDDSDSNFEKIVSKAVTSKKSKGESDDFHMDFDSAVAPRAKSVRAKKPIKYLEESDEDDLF
DNMT3A PWWP domain: DNA (cytosine-5)-methyltransferase 3A, PWWP domain (DNMT3A, Homo sapiens, UniProt Q9Y6K1)
T1: G-quadruplex RNA (Homo sapiens); GAGGGAGGCGGAGGCUG
UniProt Q8IVV7, sequence (whole entry, looked up): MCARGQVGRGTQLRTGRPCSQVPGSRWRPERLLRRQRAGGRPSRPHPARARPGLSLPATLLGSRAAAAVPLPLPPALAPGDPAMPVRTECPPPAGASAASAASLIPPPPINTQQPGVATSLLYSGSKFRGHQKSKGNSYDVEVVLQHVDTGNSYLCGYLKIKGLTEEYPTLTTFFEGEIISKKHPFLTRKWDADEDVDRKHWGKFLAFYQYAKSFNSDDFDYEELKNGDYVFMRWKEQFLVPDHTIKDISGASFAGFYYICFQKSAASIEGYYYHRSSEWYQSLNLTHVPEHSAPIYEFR
UniProt P53621, sequence (whole entry, looked up): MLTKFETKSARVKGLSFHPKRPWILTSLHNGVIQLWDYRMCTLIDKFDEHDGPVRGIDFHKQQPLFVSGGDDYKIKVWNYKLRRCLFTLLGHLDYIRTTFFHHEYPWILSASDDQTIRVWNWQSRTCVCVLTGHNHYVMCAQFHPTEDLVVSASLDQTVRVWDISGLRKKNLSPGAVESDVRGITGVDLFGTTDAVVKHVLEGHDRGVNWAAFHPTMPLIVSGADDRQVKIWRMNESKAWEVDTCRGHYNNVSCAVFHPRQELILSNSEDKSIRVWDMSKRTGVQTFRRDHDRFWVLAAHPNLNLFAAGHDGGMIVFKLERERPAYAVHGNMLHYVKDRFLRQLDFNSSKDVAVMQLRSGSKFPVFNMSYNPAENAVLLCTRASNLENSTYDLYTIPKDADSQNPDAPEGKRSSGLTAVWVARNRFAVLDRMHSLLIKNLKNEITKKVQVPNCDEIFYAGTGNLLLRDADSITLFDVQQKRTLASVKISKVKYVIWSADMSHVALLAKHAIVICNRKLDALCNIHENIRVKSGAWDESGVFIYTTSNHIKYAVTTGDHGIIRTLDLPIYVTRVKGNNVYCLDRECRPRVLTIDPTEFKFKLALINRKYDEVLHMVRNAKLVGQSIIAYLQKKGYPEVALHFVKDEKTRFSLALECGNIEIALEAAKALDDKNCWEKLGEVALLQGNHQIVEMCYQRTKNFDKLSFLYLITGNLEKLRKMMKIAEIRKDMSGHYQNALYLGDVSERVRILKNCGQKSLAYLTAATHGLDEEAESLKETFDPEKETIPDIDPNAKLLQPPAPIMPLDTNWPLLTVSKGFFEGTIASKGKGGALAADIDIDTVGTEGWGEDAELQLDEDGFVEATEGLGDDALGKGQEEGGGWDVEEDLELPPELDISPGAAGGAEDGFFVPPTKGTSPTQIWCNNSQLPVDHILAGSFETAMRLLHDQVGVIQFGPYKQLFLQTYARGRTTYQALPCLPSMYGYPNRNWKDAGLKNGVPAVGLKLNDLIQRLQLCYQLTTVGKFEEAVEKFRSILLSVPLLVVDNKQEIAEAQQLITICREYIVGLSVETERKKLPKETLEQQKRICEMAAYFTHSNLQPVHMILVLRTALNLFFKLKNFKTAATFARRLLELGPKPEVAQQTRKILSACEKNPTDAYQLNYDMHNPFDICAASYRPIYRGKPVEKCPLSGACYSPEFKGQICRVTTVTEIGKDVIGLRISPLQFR
UniProt Q64663, sequence (whole entry, unmodified, looked up): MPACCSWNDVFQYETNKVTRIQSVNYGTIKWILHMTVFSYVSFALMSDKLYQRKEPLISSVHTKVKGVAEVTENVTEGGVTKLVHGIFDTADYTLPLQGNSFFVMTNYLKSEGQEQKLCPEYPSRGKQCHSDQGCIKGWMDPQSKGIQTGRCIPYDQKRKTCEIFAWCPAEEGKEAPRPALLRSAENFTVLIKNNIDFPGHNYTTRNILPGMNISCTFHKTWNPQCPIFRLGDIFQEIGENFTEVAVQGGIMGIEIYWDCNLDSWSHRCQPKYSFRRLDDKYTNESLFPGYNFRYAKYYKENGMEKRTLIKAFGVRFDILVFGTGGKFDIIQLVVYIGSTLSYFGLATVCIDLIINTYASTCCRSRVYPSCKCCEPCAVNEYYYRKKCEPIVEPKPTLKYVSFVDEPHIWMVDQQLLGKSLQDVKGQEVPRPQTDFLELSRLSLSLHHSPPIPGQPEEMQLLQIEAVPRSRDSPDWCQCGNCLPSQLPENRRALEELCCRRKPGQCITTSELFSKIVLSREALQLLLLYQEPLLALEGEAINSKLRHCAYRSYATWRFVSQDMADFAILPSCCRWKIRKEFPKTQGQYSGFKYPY
UniProt Q8NFU1, sequence (whole entry, looked up): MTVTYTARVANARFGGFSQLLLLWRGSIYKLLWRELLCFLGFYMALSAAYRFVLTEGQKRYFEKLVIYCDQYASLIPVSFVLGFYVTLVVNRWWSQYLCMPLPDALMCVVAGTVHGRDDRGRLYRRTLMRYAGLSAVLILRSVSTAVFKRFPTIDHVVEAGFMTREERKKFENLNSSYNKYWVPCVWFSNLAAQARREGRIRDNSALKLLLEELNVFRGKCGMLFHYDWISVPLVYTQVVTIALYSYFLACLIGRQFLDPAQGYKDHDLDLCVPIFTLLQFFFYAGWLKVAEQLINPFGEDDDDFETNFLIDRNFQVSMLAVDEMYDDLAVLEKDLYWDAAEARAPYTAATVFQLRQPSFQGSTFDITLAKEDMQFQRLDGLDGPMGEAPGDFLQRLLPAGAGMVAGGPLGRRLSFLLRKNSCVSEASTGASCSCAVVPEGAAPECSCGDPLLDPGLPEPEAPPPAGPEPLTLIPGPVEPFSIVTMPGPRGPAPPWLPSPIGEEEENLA
UniProt P51575, sequence (whole entry, unmodified, looked up): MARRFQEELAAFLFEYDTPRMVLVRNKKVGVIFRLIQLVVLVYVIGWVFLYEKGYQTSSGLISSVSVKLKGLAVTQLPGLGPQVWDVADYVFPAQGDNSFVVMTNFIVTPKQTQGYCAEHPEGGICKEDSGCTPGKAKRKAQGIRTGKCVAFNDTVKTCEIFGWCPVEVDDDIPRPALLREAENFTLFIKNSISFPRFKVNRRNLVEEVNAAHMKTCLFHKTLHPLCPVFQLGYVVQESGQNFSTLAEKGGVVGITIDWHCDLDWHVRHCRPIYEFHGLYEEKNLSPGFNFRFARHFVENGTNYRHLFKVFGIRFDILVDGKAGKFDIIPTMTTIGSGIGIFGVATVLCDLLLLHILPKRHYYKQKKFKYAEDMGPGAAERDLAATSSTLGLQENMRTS
UniProt Q96RI1, sequence (whole entry, looked up): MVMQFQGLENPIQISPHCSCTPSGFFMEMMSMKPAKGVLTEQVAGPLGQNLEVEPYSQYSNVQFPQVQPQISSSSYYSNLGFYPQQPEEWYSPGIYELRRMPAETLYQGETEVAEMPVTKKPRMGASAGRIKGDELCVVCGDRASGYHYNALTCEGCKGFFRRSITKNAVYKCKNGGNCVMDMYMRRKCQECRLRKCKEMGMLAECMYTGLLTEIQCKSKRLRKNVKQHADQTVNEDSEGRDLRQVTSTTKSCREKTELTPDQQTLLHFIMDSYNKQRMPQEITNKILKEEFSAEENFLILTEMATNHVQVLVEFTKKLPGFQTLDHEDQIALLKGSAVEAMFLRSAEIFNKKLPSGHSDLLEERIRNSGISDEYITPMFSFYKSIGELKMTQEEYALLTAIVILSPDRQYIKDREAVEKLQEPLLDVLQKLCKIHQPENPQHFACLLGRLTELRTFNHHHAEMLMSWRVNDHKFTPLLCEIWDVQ

COCCC(=O)N1CCC(Oc2ccccc2)C1 (centres unmarked)  log fold enrichment (DDB1 (Homo sapiens, UniProt Q16531); binding, affinity selection mass spectrometry; reference: other proteins in batch): 0.203
O=c1nc(SCc2cc(F)cc(C(F)(F)F)c2)nc(SCc2csc3ccc(Cl)cc23)[nH]1  linear DNA (TOP2A; DNA cleavage; 3.9 µM, replicate 1): 0%
COc1cc(/C=C/c2ccc(O)cc2)cc(OC)c1  ΔH of binding (O-methyltransferase (Sorghum bicolor, UniProt A0A1B6PFV1); concentration not given, with: SAM+): -5.39 ± 0.145 kcal/mol
O=c1nc(SCc2cc(F)cc(C(F)(F)F)c2)nc(SCc2ccc3ccccc3n2)[nH]1  decatenated DNA (TOP2A; decatenation; 31.25 µM, replicate 1): 0%
COCC(=O)N1CCC[C@H](C(=O)NCc2nc(-c3ccccc3)cs2)C1  maximum inhibition (uncharacterized protein (Plasmodium falciparum, UniProt A0A5K1K7U1+Q8I261+Q8IJT1); enzyme activity, inhibitor; without WLW-vs, with: Suc-LLVY-AMC): 30%
O=c1nc(SCc2ccc(C(F)(F)F)cc2)nc(SCc2ccc3sccc3c2)[nH]1  mean decatenated DNA (TOP2A; decatenation; 7.8 µM): 100%
CC[C@@H]1[C@H](F)C(=O)N[C@@H]1COc1nccc2cc(C(N)=O)c(OC)cc12  inhibition (CHEK2 (Homo sapiens, UniProt O96017); ATP-site probe binding, ActivX profiling; THP-1 cell lysate; 0.01 mM, Lys2 site): -4.8%
O=c1c(OS(=O)(=O)[O-])c(-c2ccc(OS(=O)(=O)[O-])c(OS(=O)(=O)[O-])c2)oc2cc(OS(=O)(=O)[O-])cc(OCc3ccc(COc4cc(OS(=O)(=O)[O-])cc5oc(-c6ccc(OS(=O)(=O)[O-])c(OS(=O)(=O)[O-])c6)c(OS(=O)(=O)[O-])c(=O)c45)cc3)c12.[Na+].[Na+].[Na+].[Na+].[Na+].[Na+].[Na+].[Na+]  duration of inhibition (Neutrophil elastase (ELANE, Homo sapiens, UniProt P08246); elastin-congo red cleavage; concentration not given): ~12 h
Cc1cc(CCOCCCCCc2ccccc2)cc2nc[nH]c12  increase in Vmax (ATP2A2 (Sus scrofa, UniProt P11607); ATPase activity, activator; pig microsomes; 10 µM): ~12%
O=c1[nH]c2ccccc2s1  EC10 (PPARG (Homo sapiens, UniProt P37231); reporter gene, agonist, β-lactamase reporter; HEK293-H cells; 24 h, nominal concentration; reference: 10% of rosiglitazone maximum effect): 19.4 µM
CCCCCCCC/C=C\CCCCCCCC(=O)NCCc1ccc(O)c(O)c1  maximal open probability (Trpv1 (Mus musculus, UniProt Q704Y3, T551V); ion current, agonist, whole-cell patch clamp; T551V; reference: 3 mM 2-APB): 0.45 ± 0.05
O=[N+]([O-])c1cc(C(F)(F)F)ccc1NCc1ccsc1  koff (Endothelial PAS domain-containing protein 1, PAS-B domain (EPAS1, Homo sapiens, UniProt Q99814); ZZ-exchange NMR; 25 °C): 1.06 ± 0.08 s⁻¹
Nc1ncnc2c1ncn2[C@@H]1O[C@H](COP(=O)(O)CP(=O)(O)OP(=O)(O)O)[C@@H](O)[C@H]1O  calcium influx (P2X purinoceptor 1 (P2RX1, Homo sapiens, UniProt P51575, K136A); calcium influx; 1 µM; reference: ionomycin response): 89.4% and 85.6% and 77.7%
Cc1ccccc1C1CC(=O)c2c(C)nc(N)nc2C1 (centres unmarked)  fold enrichment (DNMT3A PWWP domain; binding, affinity selection mass spectrometry; reference: other proteins in batch): 0.895
O=C(O)c1ccc([N+](=O)[O-])cc1  current density (Bestrophin-2a (BEST2, Homo sapiens, UniProt Q8NFU1); whole-cell patch clamp; HEK293 transiently expressing channel; concentration not given, membrane potential -20 mV): -74.9 pA/pF and -61.1 pA/pF and -20.3 pA/pF and -51.1 pA/pF and -58.5 pA/pF
O=S(=O)(O)C1CCNCC1  normalised MST signal (SLC6A6 (Homo sapiens, UniProt P31641, Y138A); binding, microscale thermophoresis; 977 nM, room temperature, with: 50 nM labelled protein; higher = more binding): 0.0102
COc1ccc(CNC(=O)c2ccc(CNCc3cnc4nc(N)nc(N)c4n3)cc2)cc1  partition index (Pteridine reductase 1 (Leishmania major, UniProt Q01782); hDHFR weight 10; reference: LmPTR1, LmDHFR over hDHFR, 1.0 selective, 0.0 non-selective): 0.87
Cc1ccc2c(c1)sc(-c1ccc(N(C)C)cc1)[n+]2C  binding (T1, G-quadruplex RNA (Homo sapiens); ThT fluorescence; potassium phosphate 100 mM, reduced with Li+): binds
Nc1ncnc2c1ncn2[C@@H]1O[C@H](COP(=O)(O)OP(=O)(O)OP(=O)(O)O)[C@@H](O)[C@H]1O  normalized current (P2X purinoceptor 7 (P2rx7, Rattus norvegicus, UniProt Q64663, R125A); ion current, agonist, two-electrode voltage clamp; Xenopus laevis oocytes; 166.7 µM; reference: highest concentration response): 0.857 and 0.746 and 0.708
CC(C)(NCCc1ccc(C(F)(F)F)c(Cl)c1)c1cccc(NC2=CC(=O)N(C3CCC(=O)NC3=O)C2=O)c1 (centres unmarked)  Dmax (Cereblon/Ikaros (Homo sapiens, UniProt Q13422+Q96SW2); protein degradation, degrader, HiBiT luminescence; Jurkat): 86%
CC1(C)O[C@@H]2[C@@H](CO[C@@]3(COS(N)(=O)=O)OC(C)(C)O[C@@H]23)O1  intrinsic binding ΔH (CA4 (Homo sapiens, UniProt P22748); ITC; concentration not given, 25 °C): -7.15 kcal/mol
O=c1cc(-c2ccc([N+](=O)[O-])cc2)[nH]c2c(-c3ccc(Cl)cc3)c(Cc3ccccc3)nn12  melting temperature shift (Bis(5'-nucleosyl)-tetraphosphatase [asymmetrical] (Homo sapiens, UniProt P50583); thermal stability, binder, thermal proteome profiling; RD, cell lysate; 50 µM, 0.5% DMSO; reference: DMSO vehicle): 7.3 °C
O=C(COP(=O)(O)O)[C@@H](O)[C@H](O)[C@H](O)COP(=O)(O)O  minimum concentration, maximal activation (Pyruvate kinase PKM (PKM, Homo sapiens, UniProt P14618); pyruvate kinase activity, activator; SK-HEP1 cell lysate; with: AIM): 1750 ± 588 nM
Cc1cc(Nc2nc(N[C@@H](C)c3ccc(F)cc3)c(C#N)cc2F)[nH]n1  Hill slope (PKN1 (Homo sapiens, UniProt Q16512); inhibitor): -0.718
N#Cc1ccc2[nH]cc(CCCCN3CCN(c4ccc5oc(C(N)=O)cc5c4)CC3)c2c1  Hill coefficient (SLC6A4 (Homo sapiens, UniProt P31645, I172M/S438T); [3H]5-HT uptake, inhibitor; COS-7): 0.83 ± 0.16
C=CC(=O)N1CCC[C@@H](n2nc(-c3ccc(Oc4ccccc4)cc3)c3c(N)ncnc32)C1  remaining activity (RET (Homo sapiens, UniProt P07949); 10 µM): 63.9%
Nc1nc2c(ncn2[C@@H]2O[C@H](COP(=O)(O)O)[C@@H](O)[C@H]2O)c(=O)[nH]1  kcat (GUK1 (Homo sapiens, UniProt Q16774); substrate, NADH-coupled): 44.5 s⁻¹
[Zn+2]  remaining current (Otop1 (Mus musculus, UniProt Q80VM9); acid-evoked current, inhibitor, whole-cell patch-clamp; HEK293T; 0.01 mM, pH 5.5, unit not given; reference: current before compound): 0.79
CC1(C)CC2(C)OC(=O)NC2(C)c2ccccc21 (centres unmarked)  fold enrichment (DNMT3A PWWP domain; binding, affinity selection mass spectrometry; reference: other proteins in batch): 0.69
Cc1nc(CSc2nc(SCc3cc(F)cc(C(F)(F)F)c3)nc(=O)[nH]2)cs1  decatenated DNA (TOP2A; decatenation; 7.8 µM, replicate 2): 90.9%
O=C(NO)c1ccc(CN2CCCCc3ccccc32)c(F)c1  inhibition of radioligand binding (GABAA receptor; radioligand binding; 10 µM): 39%
COc1cc(N2CCC(N3CCN(C)CC3)CC2)ccc1Nc1ncc(Cl)c(Nc2ccccc2P(C)(C)=O)n1  NanoBRET ratio (GID4/ALK (Homo sapiens, UniProt Q8IVV7+Q9UM73); ternary complex formation; HEK293T; 50 nM, 6 h; reference: normalised ratio): 1.06 and 1.14 and 0.876
O=C(COP(=O)(O)O)[C@@H](O)[C@H](O)[C@H](O)COP(=O)(O)O  thermal stability ratio (Coatomer subunit alpha (Homo sapiens, UniProt P53621); thermal proteome profiling, item: COPA; HepG2 cell lysate; concentration not given, 57 over 37 °C; reference: compound over control): 0.556 and 0.533 and 0.545
CN(Cc1cnc2nc(N)nc(N)c2n1)c1ccc(C(=O)N[C@@H](CCC(=O)O)C(=O)O)cc1  Kt decrease (Proton-coupled folate transporter (Homo sapiens, UniProt Q96NT5, H247A); cells transfected with H247A mutant; reference: wild type): 4.2 fold
C=C1C(=O)O[C@@H]2C[C@@]3(C)CCCC(=C)[C@@H]3C[C@H]12  activation (Bile acid receptor (NR1H4, Homo sapiens, UniProt Q96RI1); reporter gene, Gal4 hybrid reporter; 10 µM; reference: vehicle): 1.16 fold
C[C@H](CCC(C)(C)O)[C@H]1CC[C@H]2[C@@H]3CC=C4C[C@@](C)(O)CC[C@]4(C)[C@H]3CC[C@]12C  current response (Glutamate NMDA receptor; GRIN1/GRIN2B (GRIN1/GRIN2B, Homo sapiens, UniProt Q05586+Q13224, P557A); positive allosteric modulator, two-electrode voltage clamp; Xenopus oocytes expressing GluN1-P557A; 10 µM, 0.02% cremophor, with: 100 µM glutamate and glycine; reference: without compound): 131 ± 4.8%
Cc1nc(CSc2nc(SCc3ccc(C(F)(F)F)cc3)nc(=O)[nH]2)cs1  decatenated DNA (TOP2A; decatenation; 15.6 µM, replicate 1): 100%
O=C(O)c1ccc(Nc2ncc3c(n2)-c2ccc(Cl)cc2C(c2c(F)cccc2F)=NC3)cc1  remaining activity (CaMKII(r); kinase activity; 1 µM): 102%
CC1(C)CCC2=C(O1)c1ccccc1C(=O)C2=O  potency (TGM2 (Homo sapiens, UniProt P21980); enzyme activity, inhibitor; with: Triton X-100 0.02%): decreased
CC(=O)Nc1ccc(O)cc1  chemical shift change (BRD4 (Homo sapiens, UniProt O60885); 19F NMR, item: tyrosine 118; 1470 µM; reference: free protein): -0.005 ppm
Nc1nc2c(ccn2[C@@H]2O[C@@H]3COP(=O)(O)O[C@H]3[C@H]2O)c(=O)[nH]1  relative binding affinity (anti-cGMP antibody; antibody binding, competitive cGMP EIA; concentration not given, acetylated samples; reference: EC50 cGMP over EC50 cpd, higher = stronger binding): 0.101

A few entries again:
COc1ccc(CNC(=O)c2ccc(CNCc3cnc4nc(N)nc(N)c4n3)cc2)cc1  partition index (Pteridine reductase 1 (Leishmania major, UniProt Q01782); hDHFR weight 10; reference: LmPTR1, LmDHFR over hDHFR, 1.0 selective, 0.0 non-selective): 0.87
Cc1ccc2c(c1)sc(-c1ccc(N(C)C)cc1)[n+]2C  binding (T1, G-quadruplex RNA (Homo sapiens); ThT fluorescence; potassium phosphate 100 mM, reduced with Li+): binds
Nc1ncnc2c1ncn2[C@@H]1O[C@H](COP(=O)(O)OP(=O)(O)OP(=O)(O)O)[C@@H](O)[C@H]1O  normalized current (P2X purinoceptor 7 (P2rx7, Rattus norvegicus, UniProt Q64663, R125A); ion current, agonist, two-electrode voltage clamp; Xenopus laevis oocytes; 166.7 µM; reference: highest concentration response): 0.857 and 0.746 and 0.708
CC(C)(NCCc1ccc(C(F)(F)F)c(Cl)c1)c1cccc(NC2=CC(=O)N(C3CCC(=O)NC3=O)C2=O)c1 (centres unmarked)  Dmax (Cereblon/Ikaros (Homo sapiens, UniProt Q13422+Q96SW2); protein degradation, degrader, HiBiT luminescence; Jurkat): 86%
